Results collected from several papers.
Parts stem from different laboratories: compare values within a part only. Changes are numbered by the printed parent chain.

Series 1
Target: Histone acetyltransferase KAT6A, winged helix 2, GST fusion (KAT6A, Homo sapiens, UniProt Q92794, residues 85-181)
Method: protein binding microarray
Form: double-stranded DNA, one strand shown
Medium: in vitro
Concentration: not given
Setting: 8-mer, flanks averaged, mean of 2 arrays, mostly near background
Reference: not given
Direction: higher = stronger binding
Residues (chain): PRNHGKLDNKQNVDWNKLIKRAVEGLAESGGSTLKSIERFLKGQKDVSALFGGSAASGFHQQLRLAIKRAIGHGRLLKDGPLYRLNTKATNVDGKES
The E-score of `TAGGTCAA` is reported as -0.0411.
The E-score of `TTCGCAAA` is reported as 0.194.
`AATATGCT` has an E-score of -0.114.
`ACGCCATA` gave an E-score of -0.101.
With `ATGCGAGA` the E-score was -0.00479.
With `CGACCACC` the E-score was -0.0173.
`GACGCCAA` has an E-score of -0.097.
With `ATCCCCGG` the E-score was -0.0807.

Series 2
Target: RNA binding protein fox-1 homolog 2, RRM domain, GST-SBP tag (RBFOX2, Homo sapiens, UniProt O43251-10, residues 100-194)
Method: RNA Bind-n-Seq
Form: RNA
Medium: in vitro
Concentration: 365 nM
Setting: natural RNA segment, single round, ends assumed
Reference: no-protein control
Direction: higher = stronger binding
Shared flanks, not repeated: GGGAGUUCUACAGUCCGACGAUC … UGGAAUUCUCGGGUGCCAA
Under “RBNS enrichment (R)”, `ACAGAGAUGGCGCUGCAGGGCCCAGAUGUGUGACUGGGCAUGUUUCCAGGAAAGAGGCCAUCUCUUGGGGGUUUCAGCCAUCUUACCCAGUGUCUGGACUGCUAUAUUGG` is recorded as 3.04.
`AUUUUCUUUUGUCCUCCCCAAAUUUUGUCAAGUUUUUUCAUUCAUAUUUUACAUUAAAGCUUAUUUUGGGGAGAUAUGAAGGUCAUCUUCAUAAAUACAUAACAACCCUC`: “RBNS enrichment (R)” 0.606.
`UUGGCAGAACAUCCGUCAGUACCUCAUGAAGGCUGGCUGCCUUUGUCUUUGAGAUAGACAUUGGAGCAGACGGACUCUGGAAAGUGCUUCUGUGGCUGUGGUCUGUCCUG` — result for “RBNS enrichment (R)”: 0.502.
Under “RBNS enrichment (R)”, `CUGUGGUGGUUGUGAUCCCUAGGUCUUGGGAGCUCUUGGAGGUGUCUGUAUCAGUGGAUUUCCCAUCCCCUGUGGGAAAUUAGUAGGCUCAUUUACUGUUUUAGGUCUAG` is recorded as 1.5.
`CCUCUGUUCUCCUUUCUGACCCACUGGGAUUUGCUAGCAGGCUGCCCCAGCCCCAUCACCGAAACACAUACUCAAGAGCUCAAAUACCACUGCUCCCACCAGCGUACGGA`: “RBNS enrichment (R)” 0.446.
`AAAGUAACAUCUCCAGAUGAGAAUUUGAAACAAGAAACAGAGUGUUGUAAAAGGACACCUUCACUGAAGCAAGUCGGAAAGUACAAUGAAAAUAAAUAUUUUUGGUAUUU`: “RBNS enrichment (R)” 0.386.
For `CCUCGAGGCACCAUUCCAGCCAGGGACGCUGCCGGGUAGACUCUCCACUCCCCCUGCCGCCCACACUGCAGCAGCCACAUCCAUACACACACGCUCGCACAGUGUUCUGA`, “RBNS enrichment (R)” read 1.01.
`CUUUUAUUUCAUGUAAACUGCCCCUCUGAGGAUUUGGGCAUAUUUUUUGGAAGGUGCCUAAUGCUUAGGAUAGUCUCUAGGGUGAUGCACUGCACCUGCUUCCUUCCCUU`: “RBNS enrichment (R)” 0.743.
`ACCCCUACCCUGGCUGCACCUGAGCUUGCUGCCCCUGGGGAUGUUGCCCAGUGGCUGUGCACUGCUCUGUGCACGUGCGUGUGUGUGAGUGCACUUGUGUGUGGGUGACU`: “RBNS enrichment (R)” 0.513.
`UAGUCUGUGUCCUGUGUGGAACUGUAAGGAUGGAGCUGCCCCUGAUAGGCUCUGUGGAGUUGGCUUGCAUUUGGAUUUCUCUCUUCUAAGGUACAUGUUAAACCUUCCUC` — result for “RBNS enrichment (R)”: 1.11.

Series 3
Target: CCNA2, cyclin fold, Cln2 fusion (human)
Method: yeast growth competition, sequencing
Medium: yeast
Setting: strong parent motif
Reference: not given
Direction: higher = stronger binding
Starting sequence: PKMYT1 docking peptide (human); SFEPRNLLSLFED; partner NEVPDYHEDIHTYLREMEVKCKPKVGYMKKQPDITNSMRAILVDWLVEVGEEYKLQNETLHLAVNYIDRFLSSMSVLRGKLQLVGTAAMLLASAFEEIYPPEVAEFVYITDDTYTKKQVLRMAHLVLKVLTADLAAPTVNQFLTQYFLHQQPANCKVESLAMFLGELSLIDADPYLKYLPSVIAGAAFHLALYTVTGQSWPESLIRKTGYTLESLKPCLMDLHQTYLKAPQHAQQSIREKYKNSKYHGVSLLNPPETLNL
For `R5A`, “normalised enrichment score” read 0.316.
For `L7S`, “normalised enrichment score” read -0.967.
`E3K`: “normalised enrichment score” 4.78.
For `D13T`, “normalised enrichment score” read 2.67.
`P4K` — result for “normalised enrichment score”: 0.187.
`P4G` — result for “normalised enrichment score”: 0.167.

Series 4
Substance: PhoQ, residues 284 288 289 292 302 303 NSMLDC
Method: Sort-seq
Item: YFP reporter
Medium: E. coli
Setting: PhoQ-PhoP variant library
With: 10 µM Mg2+
Reference: high Mg2+ state
Direction: higher = stronger signaling
It gave 14.3 for fold induction (PhoP, residues 12 14 15 18 19 TQALL (Escherichia coli, UniProt P23836)).
For PhoP, residues 12 14 15 18 19 QYFSL (Escherichia coli, UniProt P23836): fold induction read 8.65.
It gave 9.69 for fold induction (PhoP, residues 12 14 15 18 19 NYFRM (Escherichia coli, UniProt P23836)).

For quick reference, copied from above (series 1):
With `ATGCGAGA` the E-score was -0.00479.
With `CGACCACC` the E-score was -0.0173.
`GACGCCAA` has an E-score of -0.097.
With `ATCCCCGG` the E-score was -0.0807.
